Assay results of several laboratories.

Compound | organism | test | system | conditions | MIC
CC(C)[C@H](NC(=O)[C@H](CCCNC(=N)N)NC(=O)[C@H](Cc1c[nH]c2ccccc12)NC(=O)[C@H](CCCNC(=N)N)NC(=O)[C@H](Cc1c[nH]c2ccccc12)NC(=O)[C@H](Cc1c[nH]c2ccccc12)NC(=O)[C@H](Cc1c[nH]c2ccccc12)NC(=O)[C@H](CCCNC(=N)N)NC(=O)[C@H](Cc1c[nH]c2ccccc12)NC(=O)[C@@H](N)CCCNC(=N)N)C(N)=O | Candida albicans | broth microdilution | CGMCC 2.209, RPMI 1640-MOPS | 48 h, 30 °C, together with: NaCl 150 mM | 32 µM
CC[C@H](C)[C@H](NC(=O)[C@H](CCCCN)NC(=O)[C@@H](NC(=O)[C@H](Cc1ccc(O)cc1)NC(=O)[C@H](CCCCN)NC(=O)[C@H](CCCCN)NC(=O)CNC(=O)[C@H](CCCCN)NC(=O)[C@@H](NC(=O)[C@H](C)NC(=O)[C@H](CC(C)C)NC(=O)[C@H](Cc1c[nH]c2ccccc12)NC(=O)CNC(=O)[C@@H](NC(=O)[C@H](Cc1ccccc1)NC(=O)[C@H](CCCCN)NC(=O)[C@H](CC(C)C)NC(=O)[C@H](Cc1ccccc1)NC(=O)[C@H](C)NC(=O)CNC(=O)[C@@H](N)CCSC)C(C)C)[C@@H](C)O)C(C)C)C(=O)N[C@@H](C)C(=O)N[C@@H](Cc1c[nH]c2ccccc12)C(=O)N[C@@H](CC(=O)O)C(=O)N[C@@H](Cc1c[nH]cn1)C(=O)N[C@@H](CCCCN)C(=O)NCC(=O)N[C@H](C(=O)N[C@H](C(=O)N[C@@H](CCSC)C(=O)N[C@@H](CCCCN)C(=O)N[C@@H](Cc1c[nH]c2ccccc12)C(=O)N[C@@H](CC(C)C)C(=O)N[C@@H](CC(N)=O)C(=O)N[C@@H](C)C(=O)NCC(=O)N[C@@H](CCC(N)=O)C(=O)N[C@H](C(=O)N[C@@H](Cc1ccccc1)C(=O)N[C@H](C(=O)N[C@@H](Cc1c[nH]c2ccccc12)C(=O)N[C@H](C(=O)N[C@@H](Cc1ccc(O)cc1)C(=O)N[C@@H](CCC(=O)O)C(=O)N[C@@H](CCC(N)=O)C(=O)N[C@H](C(=O)N[C@@H](CCCCN)C(=O)N[C@@H](CCCCN)C(=O)N[C@@H](CC(C)C)C(=O)N[C@@H](Cc1c[nH]c2ccccc12)C(=O)N[C@H](C(=O)O)[C@@H](C)O)[C@@H](C)CC)C(C)C)[C@@H](C)O)[C@@H](C)O)[C@@H](C)CC)[C@@H](C)O | Bacillus cereus | broth microdilution |  | 37 °C | 15.6 µg/mL
CC[C@H](C)[C@H](NC(=O)[C@@H](NC(=O)[C@H](Cc1ccccc1)NC(=O)CNC(=O)[C@H](CCC(N)=O)NC(=O)[C@H](CCCCN)NC(=O)[C@H](C)N)C(C)C)C(=O)N[C@@H](Cc1ccc(O)cc1)C(=O)N[C@@H](CCCNC(=N)N)C(=O)N[C@H](C(=O)N[C@@H](CCCNC(=N)N)C(=O)N[C@H](C(=O)N[C@@H](CCCNC(=N)N)C(=O)N[C@@H](CCCNC(=N)N)C(=O)NCC(=O)N[C@@H](CC(N)=O)C(=O)N[C@@H](CCCNC(=N)N)C(=O)N[C@@H](CCCCN)C(N)=O)C(C)C)C(C)C | Staphylococcus epidermidis | broth dilution | KCTC 1917 |  | 100 µM
C[C@@H](O)[C@H](NC(=O)[C@H](Cc1c[nH]c2ccccc12)NC(=O)[C@H](Cc1c[nH]c2ccccc12)NC(=O)[C@H](Cc1c[nH]c2ccccc12)NC(=O)[C@@H](NC(=O)[C@H](Cc1c[nH]c2ccccc12)NC(=O)[C@H](CCCNC(=N)N)NC(=O)[C@@H](N)CCCNC(=N)N)[C@@H](C)O)C(=O)N[C@@H](Cc1c[nH]c2ccccc12)C(=O)N[C@@H](CCCNC(=N)N)C(=O)N[C@@H](CCCNC(=N)N)C(N)=O | Staphylococcus epidermidis | broth microdilution | 12228, Mueller-Hinton broth | 24 h, 37 °C, lowest concentration, 95% inhibition, together with: BSA | 2 µM
CC[C@H](C)CCCCC(=O)N[C@@H](CCN)C(=O)N[C@H](C(=O)N[C@@H](CCN)C(=O)N[C@H]1CCNC(=O)[C@H]([C@@H](C)O)NC(=O)[C@H](CCN)NC(=O)[C@H](CCN)NC(=O)[C@H](CC(C)C)NC(=O)[C@@H](CC(C)C)NC(=O)[C@H](CCN)NC1=O)[C@@H](C)O | Moraxella catarrhalis | broth microdilution | BNCC 337550 |  | > 64 µg/mL
CC(C)C[C@H](NC(=O)[C@H](CCCNC(=N)N)NC(=O)[C@H](Cc1c[nH]c2ccccc12)NC(=O)[C@H](CCCNC(=N)N)NC(=O)[C@H](Cc1c[nH]c2ccccc12)NC(=O)[C@H](Cc1c[nH]c2ccccc12)NC(=O)[C@H](Cc1c[nH]c2ccccc12)NC(=O)[C@H](CCCNC(=N)N)NC(=O)[C@H](Cc1c[nH]c2ccccc12)NC(=O)[C@@H](N)CCCNC(=N)N)C(N)=O | Candida albicans | broth microdilution | CGMCC 2.209, RPMI 1640-MOPS | 48 h, 30 °C, together with: ZnCl2 8 µM | 8 µM
CC[C@H](C)[C@H](NC(=O)CN)C(=O)NCC(=O)N[C@@H](C)C(=O)N[C@H](C(=O)N[C@@H](CC(C)C)C(=O)N[C@@H](CCCCN)C(=O)N[C@H](C(=O)N[C@@H](CC(C)C)C(=O)N[C@H](C(=O)N[C@H](C(=O)NCC(=O)N[C@@H](CC(C)C)C(=O)N1CCC[C@H]1C(=O)N[C@@H](C)C(=O)N[C@@H](CC(C)C)C(=O)N[C@H](C(=O)N[C@@H](CO)C(=O)N[C@@H](Cc1c[nH]c2ccccc12)C(=O)N[C@H](C(=O)N[C@@H](CCCCN)C(=O)N[C@@H](CCCNC(=N)N)C(=O)N[C@@H](CCCCN)C(=O)N[C@@H](CCCNC(=N)N)C(=O)N[C@@H](CCC(N)=O)C(=O)N[C@@H](CCC(N)=O)C(N)=O)[C@@H](C)CC)[C@@H](C)CC)[C@@H](C)O)[C@@H](C)O)C(C)C)C(C)C | Candida parapsilosis |  | CGMCC 2.399 | 48 h, 37 °C | 2 µM
CC[C@H](C)[C@H](NC(=O)[C@H](C)NC(=O)[C@H](CCCCN)NC(=O)[C@H](CC(C)C)NC(=O)[C@H](C)NC(=O)[C@@H](NC(=O)[C@H](Cc1c[nH]cn1)NC(=O)[C@H](CC(C)C)NC(=O)[C@@H](NC(=O)[C@@H](NC(=O)[C@H](CCCCN)NC(=O)[C@H](C)NC(=O)[C@H](C)NC(=O)[C@H](CO)NC(=O)[C@H](CCCCN)NC(=O)[C@H](Cc1ccccc1)NC(=O)[C@@H](NC(=O)[C@H](CCCCN)NC(=O)[C@H](CC(C)C)NC(=O)[C@H](Cc1ccccc1)NC(=O)[C@H](CO)NC(=O)[C@H](CCCCN)NC(=O)[C@H](Cc1c[nH]c2ccccc12)NC(=O)[C@H](CCCCN)NC(C)=O)[C@@H](C)O)[C@@H](C)O)C(C)C)[C@@H](C)O)C(=O)N[C@@H](CO)C(=O)N[C@@H](CO)C(N)=O | Streptococcus pyogenes |  | erythromycin-resistant | geometric mean of 19 strains | 23 µg/mL
CC[C@H](C)[C@H](NC(=O)CN)C(=O)NCC(=O)N[C@@H](C)C(=O)N[C@H](C(=O)N[C@@H](CC(C)C)C(=O)N[C@@H](CCCCN)C(=O)N[C@H](C(=O)N[C@@H](CC(C)C)C(=O)N[C@H](C(=O)N[C@H](C(=O)NCC(=O)N[C@@H](CC(C)C)C(=O)N1CCC[C@H]1C(=O)N[C@@H](C)C(=O)N[C@@H](CC(C)C)C(=O)N[C@H](C(=O)N[C@@H](CO)C(=O)N[C@@H](Cc1c[nH]c2ccccc12)C(=O)N[C@H](C(=O)N[C@@H](CCCCN)C(=O)N[C@@H](CCCNC(=N)N)C(=O)N[C@@H](CCCCN)C(=O)N[C@@H](CCCNC(=N)N)C(=O)N[C@@H](CCC(N)=O)C(=O)N[C@@H](CCC(N)=O)C(N)=O)[C@@H](C)CC)[C@@H](C)CC)[C@@H](C)O)[C@@H](C)O)C(C)C)C(C)C | Candida parapsilosis | broth microdilution | CGMCC 2.399, RPMI-1640 | 48 h, 30 °C | 2 µM
CC(C)[C@H](NC(=O)[C@H](CCCNC(=N)N)NC(=O)[C@H](Cc1c[nH]c2ccccc12)NC(=O)[C@H](CCCNC(=N)N)NC(=O)[C@H](Cc1c[nH]c2ccccc12)NC(=O)[C@H](Cc1c[nH]c2ccccc12)NC(=O)[C@H](Cc1c[nH]c2ccccc12)NC(=O)[C@H](CCCNC(=N)N)NC(=O)[C@H](Cc1c[nH]c2ccccc12)NC(=O)[C@H](CCCNC(=N)N)NC(=O)CN)C(N)=O | Candida albicans | broth microdilution | CGMCC 2.209, RPMI 1640-MOPS | 48 h, 30 °C, together with: CaCl2 2 mM | 32 µM
C[C@@H](O)[C@H]1C(=O)N2C(C(=O)O)=C(SCCN=CN)C[C@H]12 | Klebsiella pneumoniae |  | K4, first KPC-180 variant emerged | multistep mutant selection, avibactam 2731/4 mg/L | 512 µg/mL
C[C@H](NC(=O)[C@H](CCCNC(=N)N)NC(=O)[C@H](Cc1c[nH]c2ccccc12)NC(=O)[C@H](CCCNC(=N)N)NC(=O)[C@H](Cc1c[nH]c2ccccc12)NC(=O)[C@H](Cc1c[nH]c2ccccc12)NC(=O)[C@H](Cc1c[nH]c2ccccc12)NC(=O)[C@H](CCCNC(=N)N)NC(=O)[C@H](Cc1c[nH]c2ccccc12)NC(=O)[C@@H](N)CCCNC(=N)N)C(N)=O | Candida albicans | broth microdilution | CGMCC 2.209, RPMI 1640-MOPS | 48 h, 30 °C, together with: NH4Cl 6 µM | 4 µM
CC(C)C[C@H](NC(=O)CNC(=O)CNC(=O)CNC(=O)[C@H](Cc1ccc(O)cc1)NC(=O)[C@H](CC(C)C)NC(=O)[C@@H](NC(=O)CNC(=O)[C@H](Cc1ccc(O)cc1)NC(=O)[C@H](CCCCN)NC(=O)[C@H](CC(N)=O)NC(=O)[C@@H](NC(=O)[C@H](CCCCN)NC(=O)[C@H](Cc1c[nH]c2ccccc12)NC(=O)CN)[C@@H](C)O)[C@@H](C)O)C(=O)N[C@@H](CCCCN)C(=O)N[C@@H](CCCCN)C(=O)N[C@@H](CC(C)C)C(=O)N[C@@H](CC(C)C)C(=O)N[C@@H](CC(C)C)C(=O)N[C@@H](CC(C)C)C(=O)N[C@@H](CC(C)C)C(=O)N[C@@H](CCCCN)C(=O)N[C@@H](CCCCN)C(=O)N[C@@H](CC(C)C)C(=O)NCC(=O)O | Staphylococcus aureus |  | USA300 | together with: 4.5 mM KCl | 32 µg/mL
